{"data": "Experimental data gathered from unrelated publications", "note": "Parts stem from different laboratories: compare values within a part only. Positions count from the first letter of the parent shown."}
{"data": "Series 1", "target": "TAR DNA-binding protein 43, full length, His tag (TARDBP, Homo sapiens, UniProt Q13148, residues 1-414)", "method": "RNA Bind-n-Seq", "form": "RNA", "matrix": "in vitro", "concentration": "20 nM", "notes": "6-mer, flanks averaged, single round", "with": "150 mM KCl", "relative to": "input library", "reading": "higher = stronger binding"}
{"Oligonucleotide": "GGCGUA", "6-mer enrichment (R)": 1.47}
{"Oligonucleotide": "UGAUUG", "6-mer enrichment (R)": 0.832}
{"Oligonucleotide": "CAGAUU", "6-mer enrichment (R)": 0.576}
{"Oligonucleotide": "UUCCUG", "6-mer enrichment (R)": 0.601}
{"Oligonucleotide": "CGCACU", "6-mer enrichment (R)": 0.652}
{"Oligonucleotide": "UAGACA", "6-mer enrichment (R)": 0.673}
{"Oligonucleotide": "CAUACG", "6-mer enrichment (R)": 0.666}
{"Oligonucleotide": "GCCACA", "6-mer enrichment (R)": 0.782}
{"Oligonucleotide": "CUCGCC", "6-mer enrichment (R)": 0.601}
{"data": "Series 2", "target": "Fragile X messenger ribonucleoprotein 1, C-terminal low-complexity region (Fmr1, Mus musculus, UniProt P35922)", "method": "RNA Bind-n-Seq", "form": "RNA", "matrix": "in vitro", "concentration": "200 nM", "notes": "whole 134-nt RNA, ends assumed", "with": "150 mM LiCl", "relative to": "input library", "reading": "higher = stronger binding", "library": "7-deaza-guanosine replaces G", "shared flanks, not repeated": "GGGAGUUCUACAGUCCGACGAUC … UGGAAUUCUCGGGUGUCAAGG"}
{"Oligonucleotide": "CCUCAAGUCCUGUGCUACACAUCGUAUGUACCGAAUCGGGAGGAGGGGAGGGGAAAGUAUUAUGUUACGCCGUUCGGAUCUGCACUUCCA", "log2 enrichment": -0.858}
{"Oligonucleotide": "UCCUGUGCUACACAUCGUAUGUACCGAAUCGGGGUGGGGAAAAAAAGGGGAAAAAGGGGAAAGUAUUAUGUUACGCCGUUCGGAUCUGCA", "log2 enrichment": -0.944}
{"Oligonucleotide": "UCCUGUGCUACACAUCGUAUGUACCGAAUCGGGGCCCCCCGGGGCCCCCCGGCCCCCCGGAAAGUAUUAUGUUACGCCGUUCGGAUCUGC", "log2 enrichment": -0.964}
{"Oligonucleotide": "CCUGUGCUACACAUCGUAUGUACCGAAUCGGGGAAAAAAAGGGGUUUUUUUGGGGUGGGGAAAGUAUUAUGUUACGCCGUUCGGAUCUGC", "log2 enrichment": -1.3}
{"Oligonucleotide": "CCCGAGCCGGAGAGGGAGCGCGAGCCGCGCCGGCCCCGGUCGGGCCUCCGAAACCAUGAACUUUCUGCUGUCUUGGGUGCAUUGGAGCCU", "log2 enrichment": -0.0764}
{"Oligonucleotide": "UCCUCAAGUCCUGUGCUACACAUCGUAUGUACCGAAUCGGUGGUGGUGGGGAAAGUAUUAUGUUACGCCGUUCGGAUCUGCACUUCCAGC", "log2 enrichment": 0.398}
{"Oligonucleotide": "CACAGACAACACGCACCCACACAGACACAGAGGGAAGGGGUUUGGAUGGGGACAGGGUGCACAGCAGGGCGGGGUAGGACCCCAGCCCCU", "log2 enrichment": -1.14}
{"Oligonucleotide": "GUCCUGUGCUACACAUCGUAUGUACCGAAUCGGCCCCCGGGGCCCCCGGGGCCCCCGGAAAGUAUUAUGUUACGCCGUUCGGAUCUGCAC", "log2 enrichment": -1.21}
{"data": "Series 3", "target": "CCNF, cyclin fold, Cln2 fusion (human)", "method": "yeast growth competition, sequencing", "matrix": "yeast", "notes": "strong parent motif", "relative to": "not given", "reading": "higher = stronger binding", "starting sequence": "WEE1 docking peptide (human); HKTFRKLRLFDTP"}
{"Change": "HKTFRKLNLFDTP [R8N]", "normalised enrichment score": 2.76}
{"Change": "HVTFRKLRLFDTP [K2V]", "normalised enrichment score": 1.26}
{"Change": "HKTFPKLRLFDTP [R5P]", "normalised enrichment score": 1.2}
{"Change": "LKTFRKLRLFDTP [H1L]", "normalised enrichment score": 1.55}
{"Change": "HYTFRKLRLFDTP [K2Y]", "normalised enrichment score": 2.02}
{"Change": "HKVFRKLRLFDTP [T3V]", "normalised enrichment score": 3.81}
{"Change": "HKTFRKLQLFDTP [R8Q]", "normalised enrichment score": 2.75}
{"Change": "HKTVRKLRLFDTP [F4V]", "normalised enrichment score": 2.95}
{"Change": "HKTFRKLRLFDTF [P13F]", "normalised enrichment score": 2.11}
{"Change": "HKTFVKLRLFDTP [R5V]", "normalised enrichment score": 1.12}
{"data": "Single results of other studies"}
{"Substance": "PhoQ, residues 284 288 289 292 302 303 GASLAW", "target": "PhoP, residues 12 14 15 18 19 LHSVW (Escherichia coli, UniProt P23836)", "test": "Sort-seq, refers to: YFP reporter", "system": "E. coli", "conditions": "PhoQ-PhoP variant library, with: 10 µM Mg2+", "how to read": "relative to: high Mg2+ state, higher = stronger signaling", "endpoint": "fold induction", "result": 3.6}
{"note": "For quick reference, copied from above (series 3):"}
{"Change": "HKVFRKLRLFDTP [T3V]", "normalised enrichment score": 3.81}
{"Change": "HKTFRKLQLFDTP [R8Q]", "normalised enrichment score": 2.75}
